Measurements from different studies.
Compare with care: the assays were run in different laboratories. ± marks the error that the study gave.
AKR1C1: Aldo-keto reductase family 1 member C1 (AKR1C1, Homo sapiens, UniProt Q04828)
Chain of UniProt Q04828 (whole entry, looked up): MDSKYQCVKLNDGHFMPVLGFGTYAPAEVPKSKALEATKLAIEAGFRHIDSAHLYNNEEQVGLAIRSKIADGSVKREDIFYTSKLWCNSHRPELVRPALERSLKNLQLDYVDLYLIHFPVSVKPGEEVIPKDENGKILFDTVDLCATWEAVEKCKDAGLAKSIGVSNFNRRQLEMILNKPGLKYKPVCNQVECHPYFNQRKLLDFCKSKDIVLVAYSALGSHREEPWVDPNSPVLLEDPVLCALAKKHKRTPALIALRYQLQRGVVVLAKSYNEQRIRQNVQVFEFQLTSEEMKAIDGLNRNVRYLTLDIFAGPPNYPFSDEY
SIRT1: NAD-dependent protein deacetylase sirtuin-1 (SIRT1, Homo sapiens, UniProt Q96EB6)
Chain of UniProt Q96EB6 (whole entry, looked up): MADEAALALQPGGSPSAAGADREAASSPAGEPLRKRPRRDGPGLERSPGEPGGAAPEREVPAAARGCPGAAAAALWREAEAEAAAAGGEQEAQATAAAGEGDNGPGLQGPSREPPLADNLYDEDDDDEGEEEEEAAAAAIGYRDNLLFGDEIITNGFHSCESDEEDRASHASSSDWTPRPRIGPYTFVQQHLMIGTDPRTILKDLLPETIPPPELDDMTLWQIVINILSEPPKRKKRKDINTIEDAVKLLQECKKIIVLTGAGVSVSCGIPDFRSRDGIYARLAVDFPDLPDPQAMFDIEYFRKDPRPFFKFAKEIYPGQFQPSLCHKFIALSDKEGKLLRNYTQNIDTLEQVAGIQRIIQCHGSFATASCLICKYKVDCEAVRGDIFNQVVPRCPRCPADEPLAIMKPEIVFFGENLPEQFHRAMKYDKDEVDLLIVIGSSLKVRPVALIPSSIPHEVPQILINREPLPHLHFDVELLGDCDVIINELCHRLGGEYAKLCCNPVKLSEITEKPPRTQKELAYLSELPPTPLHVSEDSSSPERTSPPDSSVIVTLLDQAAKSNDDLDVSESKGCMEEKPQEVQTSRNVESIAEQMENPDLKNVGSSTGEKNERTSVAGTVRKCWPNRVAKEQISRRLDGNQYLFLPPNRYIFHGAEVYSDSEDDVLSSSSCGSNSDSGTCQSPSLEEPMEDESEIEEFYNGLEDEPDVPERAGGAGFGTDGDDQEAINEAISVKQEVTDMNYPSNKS
IDO1: Indoleamine 2,3-dioxygenase 1 (IDO1, Homo sapiens, UniProt P14902)
Chain of UniProt P14902 (whole entry, looked up): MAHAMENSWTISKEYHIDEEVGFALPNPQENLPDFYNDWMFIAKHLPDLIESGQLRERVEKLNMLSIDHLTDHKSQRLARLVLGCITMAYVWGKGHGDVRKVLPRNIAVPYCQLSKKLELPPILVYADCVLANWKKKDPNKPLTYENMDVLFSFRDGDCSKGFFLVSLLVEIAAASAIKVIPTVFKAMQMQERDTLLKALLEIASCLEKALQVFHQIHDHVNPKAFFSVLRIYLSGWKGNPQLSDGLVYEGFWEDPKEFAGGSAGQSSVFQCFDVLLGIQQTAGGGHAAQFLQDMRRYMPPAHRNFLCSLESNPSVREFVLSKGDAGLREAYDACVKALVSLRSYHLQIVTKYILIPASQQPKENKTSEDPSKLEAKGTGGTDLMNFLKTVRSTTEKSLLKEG
PPO3: PPO3 (Agaricus bisporus, UniProt C7FF04)
Chain of UniProt C7FF04 (whole entry, looked up): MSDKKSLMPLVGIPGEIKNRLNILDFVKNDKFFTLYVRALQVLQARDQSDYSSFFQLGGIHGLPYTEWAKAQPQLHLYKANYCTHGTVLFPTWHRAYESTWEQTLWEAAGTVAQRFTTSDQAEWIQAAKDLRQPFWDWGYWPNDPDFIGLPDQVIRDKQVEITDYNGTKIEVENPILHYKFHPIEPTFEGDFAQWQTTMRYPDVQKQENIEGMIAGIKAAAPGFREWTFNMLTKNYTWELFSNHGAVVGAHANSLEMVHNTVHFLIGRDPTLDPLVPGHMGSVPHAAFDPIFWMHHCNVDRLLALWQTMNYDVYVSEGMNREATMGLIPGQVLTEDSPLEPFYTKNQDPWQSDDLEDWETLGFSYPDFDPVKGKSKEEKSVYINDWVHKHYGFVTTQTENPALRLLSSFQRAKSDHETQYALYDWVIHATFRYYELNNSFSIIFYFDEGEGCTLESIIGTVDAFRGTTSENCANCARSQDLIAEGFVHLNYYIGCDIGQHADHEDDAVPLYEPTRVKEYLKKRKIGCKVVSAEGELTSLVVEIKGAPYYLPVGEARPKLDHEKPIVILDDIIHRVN
Epha4 ectodomain: Ephrin type-A receptor 4, ectodomain (Epha4, Mus musculus, UniProt Q03137)
Chain of UniProt Q03137 (whole entry, looked up): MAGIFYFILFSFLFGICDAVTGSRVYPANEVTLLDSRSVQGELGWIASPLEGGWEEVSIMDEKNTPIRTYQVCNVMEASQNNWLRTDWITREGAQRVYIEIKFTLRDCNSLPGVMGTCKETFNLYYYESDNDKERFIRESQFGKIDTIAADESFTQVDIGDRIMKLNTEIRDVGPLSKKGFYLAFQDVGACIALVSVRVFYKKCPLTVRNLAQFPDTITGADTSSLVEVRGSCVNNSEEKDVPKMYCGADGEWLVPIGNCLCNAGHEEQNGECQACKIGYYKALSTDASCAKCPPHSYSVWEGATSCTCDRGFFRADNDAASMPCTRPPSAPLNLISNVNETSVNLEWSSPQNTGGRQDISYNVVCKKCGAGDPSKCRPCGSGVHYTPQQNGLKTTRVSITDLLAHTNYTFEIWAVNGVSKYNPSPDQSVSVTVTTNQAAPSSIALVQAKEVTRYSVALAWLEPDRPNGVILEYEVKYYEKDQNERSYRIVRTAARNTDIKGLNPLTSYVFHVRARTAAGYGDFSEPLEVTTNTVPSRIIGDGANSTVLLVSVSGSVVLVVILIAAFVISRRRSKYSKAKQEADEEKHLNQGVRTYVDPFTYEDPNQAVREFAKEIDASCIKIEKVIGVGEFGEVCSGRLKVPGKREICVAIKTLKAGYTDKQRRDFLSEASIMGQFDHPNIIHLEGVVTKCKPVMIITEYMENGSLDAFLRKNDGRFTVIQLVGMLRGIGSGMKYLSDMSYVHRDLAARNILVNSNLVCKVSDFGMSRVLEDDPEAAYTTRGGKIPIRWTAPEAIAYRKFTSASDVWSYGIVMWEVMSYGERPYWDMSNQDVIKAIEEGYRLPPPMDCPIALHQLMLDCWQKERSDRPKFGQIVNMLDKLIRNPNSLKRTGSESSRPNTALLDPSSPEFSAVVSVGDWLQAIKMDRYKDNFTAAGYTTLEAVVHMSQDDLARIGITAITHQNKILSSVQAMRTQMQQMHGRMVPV
Chain of UniProt Q9NSY1 (whole entry, looked up): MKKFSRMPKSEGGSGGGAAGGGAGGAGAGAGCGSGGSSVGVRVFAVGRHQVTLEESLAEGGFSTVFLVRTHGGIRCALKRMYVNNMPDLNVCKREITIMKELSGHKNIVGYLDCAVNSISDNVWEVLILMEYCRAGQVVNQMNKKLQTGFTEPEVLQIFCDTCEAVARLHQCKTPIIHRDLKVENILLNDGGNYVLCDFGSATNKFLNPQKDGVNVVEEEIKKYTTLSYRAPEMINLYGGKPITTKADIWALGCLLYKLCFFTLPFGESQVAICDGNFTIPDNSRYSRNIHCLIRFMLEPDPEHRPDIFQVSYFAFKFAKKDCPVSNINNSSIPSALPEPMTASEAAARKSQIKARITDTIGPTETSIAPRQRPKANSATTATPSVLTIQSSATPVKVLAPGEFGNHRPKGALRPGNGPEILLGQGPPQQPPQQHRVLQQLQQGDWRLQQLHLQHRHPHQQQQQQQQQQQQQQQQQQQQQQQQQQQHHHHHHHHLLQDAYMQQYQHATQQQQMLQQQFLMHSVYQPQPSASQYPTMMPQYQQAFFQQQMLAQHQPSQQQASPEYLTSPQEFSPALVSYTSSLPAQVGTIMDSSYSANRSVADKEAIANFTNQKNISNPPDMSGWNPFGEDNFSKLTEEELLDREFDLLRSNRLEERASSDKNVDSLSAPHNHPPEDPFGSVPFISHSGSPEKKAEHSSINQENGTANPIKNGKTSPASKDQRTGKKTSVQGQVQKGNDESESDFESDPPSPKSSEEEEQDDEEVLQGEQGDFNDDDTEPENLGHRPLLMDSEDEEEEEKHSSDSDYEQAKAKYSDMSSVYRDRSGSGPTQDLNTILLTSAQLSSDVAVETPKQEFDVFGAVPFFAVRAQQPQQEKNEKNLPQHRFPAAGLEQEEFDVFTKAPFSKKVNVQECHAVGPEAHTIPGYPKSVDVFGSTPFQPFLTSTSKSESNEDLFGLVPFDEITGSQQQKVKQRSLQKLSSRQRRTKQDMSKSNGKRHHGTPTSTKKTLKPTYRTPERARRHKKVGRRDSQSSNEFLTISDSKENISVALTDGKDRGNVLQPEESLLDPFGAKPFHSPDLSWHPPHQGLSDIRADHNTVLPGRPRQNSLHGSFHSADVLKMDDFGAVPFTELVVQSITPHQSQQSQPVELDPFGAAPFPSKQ
Chain of UniProt Q6PHR2 (whole entry, looked up): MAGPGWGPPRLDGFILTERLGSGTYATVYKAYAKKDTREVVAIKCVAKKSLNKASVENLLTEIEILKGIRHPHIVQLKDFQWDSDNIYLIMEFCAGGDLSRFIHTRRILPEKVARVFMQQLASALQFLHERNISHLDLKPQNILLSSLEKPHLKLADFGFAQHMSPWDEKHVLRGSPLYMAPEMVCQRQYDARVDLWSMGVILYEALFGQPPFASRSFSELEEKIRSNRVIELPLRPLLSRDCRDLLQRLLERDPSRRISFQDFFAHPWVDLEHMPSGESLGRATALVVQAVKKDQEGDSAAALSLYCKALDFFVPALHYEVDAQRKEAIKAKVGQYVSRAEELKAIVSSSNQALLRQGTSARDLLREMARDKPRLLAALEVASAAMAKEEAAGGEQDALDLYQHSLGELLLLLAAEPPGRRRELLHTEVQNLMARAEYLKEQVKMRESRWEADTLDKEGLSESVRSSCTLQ
Chain of UniProt P34975 (whole entry, looked up): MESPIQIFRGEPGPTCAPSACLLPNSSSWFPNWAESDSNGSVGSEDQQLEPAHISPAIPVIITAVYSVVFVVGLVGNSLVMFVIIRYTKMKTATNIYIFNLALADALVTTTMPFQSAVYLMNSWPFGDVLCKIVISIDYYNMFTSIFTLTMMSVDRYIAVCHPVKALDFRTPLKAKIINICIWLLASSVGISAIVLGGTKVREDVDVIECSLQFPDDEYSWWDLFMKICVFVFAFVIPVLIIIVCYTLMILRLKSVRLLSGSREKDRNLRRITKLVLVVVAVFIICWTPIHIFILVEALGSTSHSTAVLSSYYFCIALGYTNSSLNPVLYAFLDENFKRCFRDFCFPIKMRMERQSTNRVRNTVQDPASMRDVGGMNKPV

O=c1c2sccc2n(CC2COc3ccccc3O2)c(=O)n1O (stereo not drawn)
inhibition (APEX1 (Homo sapiens, UniProt P27695); inhibitor; concentration not given, added: AP1 substrate 150 nM): no inhibition

COc1ccc2c(c1I)CC[C@@H]1[C@@H]2CC[C@@]2(C)C(=O)CC[C@@H]12
inhibition (AKR1C1; enzyme activity, inhibitor, absorbance; 10 µM, pH 9): 5.1%

CC(C)[C@H](NC(=O)c1ccc2c(c1)nc(-c1c(F)cccc1Cl)n2C1CCCCC1)C(=O)O
inhibition (SIRT1; enzyme activity, inhibitor, fluorescence; 10 µM): < 30%

C[C@@H](N)C1CCN(S(=O)(=O)c2cccc3cnccc23)CC1
inhibition (BMP2K (Homo sapiens, UniProt Q9NSY1); cell-free assay, competition with immobilised ligand; 10 µM): > 95%

C/C=C/c1cc(=O)c2c(C)cc(OC)c([C@@H]3O[C@H](CO)[C@@H](O)[C@H](O)[C@H]3OC(=O)/C=C/c3ccc(O)cc3)c2o1
inhibition (IDO1; kynurenine formation; 100 µM): 22.8 ± 0.48%

C[C@]12CC[C@@H]3c4cc(I)c(O)cc4CC[C@H]3[C@@H]1CCC2=O
inhibition (AKR1C1; enzyme activity, inhibitor, absorbance; 100 µM, pH 9): 22.5%

CCOc1ccc(C2CC(c3ccc(C)cc3)=Nc3ccccc3S2)cc1 (stereo not drawn)
inhibition (PPO3; enzyme activity, inhibitor; 25 µg/mL): 45%

COc1ccc2[nH]cc(C[C@H](NC(=O)CCN)C(=O)N[C@@H](Cc3ccc(Cl)cc3)C(=O)N[C@@H](Cc3ccncc3)C(N)=O)c2c1
inhibition (Epha4 ectodomain; ephrin-A5 binding, antagonist, ELISA; 500 µM, added: ephrin-A5-AP): ~90%

CC(C)(O)Cn1nc(-c2ccccc2)c2c(Cl)c(-c3ccccc3)nnc21
inhibition (60 kDa heat shock protein, mitochondrial (Homo sapiens, UniProt P10809); chaperone activity; 0.846 µM, added: citrate synthase aggregation): 87.1 ± 27.7%

N=C(N)SCc1cccc(CSC(=N)N)c1
inhibition (IDO1; enzyme activity, inhibitor, biochemical; concentration not given): inactive

COCC12C(=O)NC3C4(C(OC)CC1O)C1CC5(O)C(OC)C(O)C(OC(C)=O)(C1C5OC(=O)c1ccccc1)C3(O)C(OC)C24 (stereo not drawn)
inhibition (GRK2 (Homo sapiens, UniProt P25098); enzyme activity; 25 µM): inhibited

CC(C)c1nnc(-c2cccc(Nc3ncnn4ccc(CN5CCC(N)CC5)c34)c2)s1
inhibition (kinase panel; enzyme activity, inhibitor; concentration not given, seven off-target kinases besides AAK1): inhibited

COc1cc(C(=O)NC2CCC(N3CCN(CC4CCC5(CCCC5)C4)CC3)CC2)c(F)cc1Nc1ncc2c(n1)N(C1CCCC1(F)F)CC(F)(F)C(=O)N2C (stereo not drawn)
inhibition (ERBB2 (Homo sapiens, UniProt P04626); cell-free assay, TR-FRET; 10 µM): 6.41%

COc1ncnc(C2CC2)c1-c1ncc2c(n1)n(Cc1ccc(-c3nc(C(F)(F)F)cn3C)cc1)c(=N)n2CC(F)(F)F
inhibition (ULK3 (Homo sapiens, UniProt Q6PHR2); cell-free assay, competition with immobilised ligand; 10 µM): 89%

C[C@]12CCC[C@H]1[C@@H]1CCc3c(cc(Cl)c(O)c3Cl)[C@H]1CC2
inhibition (AKR1C1; enzyme activity, inhibitor, absorbance; 10 µM, pH 9): 39.4%

CSCC[C@@H]1NC(=O)[C@H]([C@@H](C)O)NC(=O)[C@H](CCCNC(=N)N)NC(=O)CNC(=O)CC[C@@H](C(=O)N[C@@H](C)C(=O)N[C@@H](CCCNC(=N)N)C(=O)N[C@@H](CCCCN)C(=O)N[C@@H](CO)C(=O)N[C@H](C(=O)NCC(=O)NCC(N)=O)[C@@H](C)O)NC(=O)[C@H](CCC(N)=O)NC1=O
inhibition (SETD7 (Homo sapiens, UniProt Q8WTS6); enzyme activity, inhibitor, MALDI-TOF MS; 50 µM, 10 min preincubation, 30 min, pH 8, 37 °C, enzyme 500 nM, added: H3 1-21 peptide, SAM 30 µM): ~55%

CCCC[C@H](NC(C)=O)C(=O)N1CCC[C@H]1C(=O)N[C@@H](CO)C(=O)N[C@@H](CO)C(=O)N[C@@H](C)C(=O)N[C@@H](CO)C(=O)N[C@@H](CCCNC(=N)N)C(=O)N[C@@H](CCC(N)=O)C(=O)N[C@@H](CC(C)C)C(=O)N[C@]1(C)CCCCCCC=CCCC[C@@](C)(C(=O)N[C@@H](CCC(N)=O)C(N)=O)NC(=O)[C@H](CCC(=O)O)NC(=O)[C@H](CCCCN)NC(=O)[C@H](CC(C)C)NC(=O)[C@H](CCC(N)=O)NC(=O)[C@H](CCCCN)NC(=O)[C@H](CCCNC(=N)N)NC1=O
inhibition (UBA1 (Homo sapiens, UniProt P22314); ubiquitin thioester transfer to UBE2D2, inhibitor; concentration not given, staple-scanning screen): inactive

Cc1cc(NC(=O)[C@H](O)c2cc(F)cc(F)c2)ccc1-c1cnc(N)c(C(=O)NC(C)C)c1
inhibition (RET (Homo sapiens, UniProt P07949, M918T); cell-free assay, competition with immobilised ligand; 1 µM): > 50%

COc1ccc(-c2n[nH]cc2/C=C2\SC(=S)N(CC(=O)O)C2=O)cc1
inhibition (SIRT1; enzyme activity, inhibitor, fluorescence; 10 µM): < 30%

C[C@@]12CC[C@@H]3c4cc(Br)c(O)cc4CC[C@H]3[C@@H]1CCC2=O
inhibition (AKR1C1; enzyme activity, inhibitor, absorbance; 100 µM, pH 9): 22.5%

C[N+](C)(CC(=O)Nc1cccc(C(F)(F)F)c1)CC(=O)Nc1cccc(C(F)(F)F)c1
inhibition (TRPV4 (Homo sapiens, UniProt Q9HBA0); calcium influx, antagonist; Huh-7; 1 µM, added: GSK1016790A 10 nM): inhibited

OB(O)c1ccc(OCc2ccccc2)nc1F
inhibition (PRE2 (Saccharomyces cerevisiae S288c, UniProt P30656); 20S proteasome activity; 100 µM, added: Suc-LLVY-AMC): ≤ 20%

CC(=O)Nc1cc(COc2c(Cl)cc(CC(N)C(=O)O)cc2Cl)c2oc(-c3ccccc3)nc2c1 (stereo not drawn)
inhibition (Sodium-coupled neutral amino acid transporter 4 (SLC38A4, Homo sapiens, UniProt Q969I6); L-alanine uptake; Xenopus oocytes; 1 and 10 µM, 30 min, added: L-[14C]alanine 50 µM): no inhibition

C[C@H](O)CC(=O)Cc1cccc2oc(CO)cc(=O)c12
inhibition (IDO1; kynurenine formation; 100 µM): 9.66 ± 4.7%

Cc1ccc(C2=Nc3ccccc3SC(c3ccc(C(=O)O)cc3)C2)cc1 (stereo not drawn)
inhibition (PPO3; enzyme activity, inhibitor; 25 µg/mL): 32%

O=C1c2c(O)cccc2[C@@H]([C@@H]2O[C@H](CO)[C@@H](O)[C@H](O)[C@H]2O)c2cc(CO)cc(O)c21
inhibition (IDO1; kynurenine formation; 100 µM): 66.8 ± 0.82%

C[C@@]12CC[C@@H]3c4ccc(O)c(I)c4CC[C@H]3[C@@H]1CCC2=O
inhibition (AKR1C1; enzyme activity, inhibitor, absorbance; 100 µM, pH 9): 22.5%

CC[C@H](C)[C@H](NC(=O)[C@H](CCC(=O)O)NC(=O)[C@@H](NC(=O)[C@H](CCC(N)=O)NC(=O)[C@@H](N)CCCCN)[C@@H](C)CC)C(=O)N[C@@H](CCCCN)C(=O)N[C@@H](CCCCN)C(=O)N[C@@H](Cc1ccccc1)C(=O)N[C@@H](CCCCN)C(=O)O
inhibition (GJA1 (Homo sapiens, UniProt P17302); ATP release, inhibitor; C6-Cx43; 250 µM, expected value): 97%

COc1cc2c(cc1I)[C@H]1CC[C@@]3(C)C(=O)CC[C@H]3[C@@H]1CC2
inhibition (AKR1C1; enzyme activity, inhibitor, absorbance; 10 µM, pH 9): 1%

CNC(=O)c1ccccc1Oc1nc(Nc2cc(OC)c(OC)c(OC)c2)ncc1Br
inhibition (MARK3 (Homo sapiens, UniProt P27448); enzyme activity, inhibitor; 1 µM): 30 to 50%

COc1cc2c(cc1Br)[C@H]1CC[C@@]3(C)C(=O)CC[C@H]3[C@@H]1CC2
inhibition (AKR1C1; enzyme activity, inhibitor, absorbance; 10 µM, pH 9): 7.1%

COc1cc(C2CC(c3ccc(C)cc3)=Nc3ccccc3S2)ccc1OCc1ccccc1 (stereo not drawn)
inhibition (PPO3; enzyme activity, inhibitor; 25 µg/mL): 28%

CC(=O)c1cnc(N)nc1N1CC[C@H]1c1nn2ccc(Cl)c2c(=O)n1-c1ccccc1
inhibition (HCN2 (Homo sapiens, UniProt Q9UL51); ion current, inhibitor; 3 µM): < 10%

CCCCCCCCCCCCCC(=S)NCCCC[C@H](NC(=O)CNC(=O)CN)C(=O)NCC(=O)O
inhibition (SIRT3 (Homo sapiens, UniProt Q9NTG7); enzyme activity, inhibitor; 50 µM): 43%

NCCC(=O)N[C@@H](Cc1c[nH]c2ccccc12)C(=O)N[C@@H](Cc1ccc(Cl)cc1)C(=O)N[C@@H](Cc1ccc(F)cc1)C(N)=O
inhibition (Epha4 ectodomain; ephrin-A5 binding, antagonist, ELISA; 500 µM, added: ephrin-A5-AP): 40%

CC1=CC(=O)C(C2CCCCC2)=C/C1=N\OS(=O)(=O)c1ccccc1
inhibition (PPO3; enzyme activity, inhibitor, absorbance; 20 µM): ~50%

C[C@]12CC[C@@H]3c4ccc(O)c(Br)c4CC[C@H]3[C@@H]1CCC2=O
inhibition (AKR1C1; enzyme activity, inhibitor, absorbance; 100 µM, pH 9): 100%

O=C(Cn1cc(C2CC(c3ccccc3)=NN2)nn1)Nc1nc(-c2ccccc2)cs1 (stereo not drawn)
inhibition (MMP9 (Homo sapiens, UniProt P14780); enzyme activity, inhibitor; 0.5 µM): 82.3%

Cn1nc(-c2ccc(Cl)cc2)c2cc(C(=O)NCCCN3CCCCCC3)sc21
inhibition (RAD51 (Homo sapiens, UniProt Q06609); D-loop formation; 10 x IC50, added: Ca2+ 1 mM; reference: DMSO): > 2 fold

CCC(=O)N(C)c1ccc(Cl)c(Cl)c1
inhibition (Oprk1 (Rattus norvegicus, UniProt P34975); ligand displacement, radioligand; 10 µM): 15.2%

Clc1ccc(NN=C(c2ccccc2)c2ccccn2)nc1
inhibition (KDM4E (Homo sapiens, UniProt B2RXH2); demethylase activity, inhibitor, coupled formaldehyde dehydrogenase; 10 µM, added: H3K9me3 peptide): inhibited

C=CC(=O)Nc1cccc(-c2cnc3[nH]cc(C(=O)NC(C)(C)C)c3n2)c1
inhibition (CLK4 (Homo sapiens, UniProt Q9HAZ1); enzyme activity, inhibitor; 0.1 µM): > 90%
